Measurements from different studies.
Lines come from different studies, so protocols differ.

SMILES	test	system	conditions	Cmax [ng/mL]
N.N.O=C([O-])C1(C(=O)[O-])CCC1.[Pt+2]	ICP-MS platinum, item: platinum	human patients, plasma ultrafiltrate	dose not given, carboplatin target AUC 4, cycle 1 day 1	40000
N.N.O=C([O-])C1(C(=O)[O-])CCC1.[Pt+2]	item: non-protein-bound platinum	human, plasma ultrafiltrate	dose not given, median	15100
CC(=O)c1c(C)c2cnc(Nc3ccc(C4CCN(CCS(C)(=O)=O)CC4)cn3)nc2n(C2CCCC2)c1=O	–	human, plasma	oral, 25 mg once daily, day 1, single dose	75.5
OCc1ncc2n1-c1ccc(Cl)cc1C(c1ccccc1F)=NC2	–	human, plasma	oral, 7.5 mg of midazolam, day 19, arithmetic mean, no amenamevir	15.8
C[C@H](NC(=O)c1c(C(F)F)nn(C)c1Oc1cccc(C(F)(F)F)c1)c1ccc(C(=O)O)cc1	–	human, plasma	500 mg, cycle 1 day 8, mean	1520
Cn1ncc(-c2nc(N[C@H]3CC[C@H](N)CC3)ncc2Cl)c1CC1CC1	–	human patients, plasma	oral, 42 mg, day 5	155
O[C@H]1CCCN[C@@H]1CCCn1cnc2c(Cl)c(Cl)ccc21	–	human, UGT2B7 NN phenotype, plasma	oral, 150 mg twice daily, steady state	293
O=c1ccc2ncc(=O)n3c2n1C[C@H]3CN1CCC(NCc2cc3c(cn2)OCCC3)CC1	–	healthy human volunteers, plasma	oral, dose not given, arithmetic mean, together with: itraconazole	5750
